Measured values pooled from the literature.
Each numbered part is a random draw from the data of one study; scales do not carry over between parts. Substitutions count along the parent as printed.

Set 1 — method: protein binding microarray; molecule type: double-stranded DNA, one strand shown; sample: in vitro; tested at: not given; baseline: not given; direction: higher = stronger binding; measurement: E-score
Target: Histone acetyltransferase KAT6A, winged helix 1, GST fusion (KAT6A, Homo sapiens, UniProt Q92794, residues 1-85)
Setting: 8-mer, flanks averaged, mean of 2 arrays, mostly near background
Target sequence (chain): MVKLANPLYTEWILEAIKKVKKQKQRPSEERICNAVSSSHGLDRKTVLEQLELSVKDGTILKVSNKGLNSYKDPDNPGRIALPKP
CCGAGTTC: 0.036
ATATGTTA: -0.171
AACGAATC: -0.0914
AAAAGTAC: 0.0785
CCACTCAG: -0.183
CTGGCACA: -0.172
CCTGTGAG: -0.185
ATCGCCGG: 0.38
AAAATGGT: -0.273
GATACAAC: -0.00114
AGCGCCGG: 0.44
TATTATAA: -0.0582
AACTTAAC: -0.118
CAGCATAG: -0.136
ATACAGAG: -0.0788
GGTCTAAA: -0.184

Set 2 — method: RNA Bind-n-Seq; molecule type: RNA; sample: in vitro; tested at: not given; baseline: input RNA pool; direction: higher = stronger binding; measurement: bound/input enrichment
Target: RING finger protein unkempt homolog, zinc fingers 1-6, GST-SBP tag (UNK, Homo sapiens, UniProt Q9C0B0, residues 30-357)
Chain of UniProt Q9C0B0 (30-357, looked up): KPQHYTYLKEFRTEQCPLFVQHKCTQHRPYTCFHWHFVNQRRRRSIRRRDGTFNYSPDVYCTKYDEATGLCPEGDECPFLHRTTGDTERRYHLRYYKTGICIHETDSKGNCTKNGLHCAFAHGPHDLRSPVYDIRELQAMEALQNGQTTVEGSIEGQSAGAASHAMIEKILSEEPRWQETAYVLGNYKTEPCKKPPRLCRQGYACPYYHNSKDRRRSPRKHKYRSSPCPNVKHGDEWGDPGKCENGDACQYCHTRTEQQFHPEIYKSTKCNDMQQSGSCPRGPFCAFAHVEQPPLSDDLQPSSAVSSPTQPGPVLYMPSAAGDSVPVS
Setting: RNA with constant flanks, human and mouse sites, ends assumed
Shared flanks, not repeated: GGGAGUUCUACAGUCCGACGAUC … CAACAGAGGAUUGAGCAUCA
AACACGAUUCCCAGUUUCUUCAACUGGUUCUCAGACCACAGCCUCCUAGAAUUCGACAGAAUAGCUGAAAUUAUCAAAGGGGAGCUGUGGUCCAAUCCCCUACAAUACUAUCUGAUGGGC: 0.41 ratio
UACCACCAUGUACCCAGGCAUUGCUGACAGGAUGCAGAAGGAGAUUACUGCUCUGGCUCCUAGCACCAUGAAGAUCAAGAUCAUUGCUCCUCCUGAGCGCAAGUACUCUGUGUGGAUCGA: 0.137 ratio
GAAUUAUUUCCCAAGUUACAAGCAAAUAUCUCAACUGGUGUCUCCAAGAUUCGACUUUUGACAAUAAGGAUACUAAAUCAUUUUGACAUCCGGCUUCCAGUUUCAAUGGAGGAUGAUGGG: 0.174 ratio
UCAUUGUCUUUUUUUUCCUCUUUUCUCUGUAAUUUGUUACUAAACAAAUUCCAGAAUUUGUUUAGUAGCUGAGUGUUCCUGAGUUGCCUAGUAGCAAUAAAACAAGUGAAUAGGAAAAUA: 0.486 ratio
UUAUUUUUCCCCCCCUACAGUUUCCAUUUUUUUUUUAUACUUGCUUACUCCAGCCAUCUGCAGUACACCAGUUUCAGGUCUUUUGAGCUGUGUAGAGUUUCUGUGUGUACAGAUGUGUGC: 8.28 ratio
GGACUUGUGCUCUCUGGAACCACAUUUUCAGACUGUCUCAUGGUGGUGCAGUUCUUACGAAACUUUGGUAAAGUUUUGGGCUUUGAUGUGAAUAUUGAUGUUCCAAACCUCAGUGUUCUU: 0.209 ratio
CAGAACCUAAACUUAUAGCAAAAGAGCCAAGCAGUAGCAGUUUUUGUAAAUGUAAAAAUAAUUAGAUCCAGACUUUGUUUCCUUCAAUUUUAAAAAUAAAAAAUACCUCAGUGCUAUGUU: 7.49 ratio
ACUGGAGAGAAACCUUACAAGUGUGACGAAUGUGGCAAAUCAUUUAUCUGGUCCUCAACCCUUUUUAAGCAUAAGAGGAUUCAUACUUGAGAGAAACCUUAAAAAGGGUAAAGAAUGUGG: 0.245 ratio

Set 3 — method: DHFR PCA, deep sequencing; sample: yeast; together with: (+)-ABA 0 µM; baseline: wild-type fitted maximum; direction: higher = stronger binding; measurement: relative binding score
Target: ABI1, truncated, D143A, DHFR fusion (Arabidopsis thaliana)
Setting: methotrexate growth selection, single substitutions
Starting sequence: PYL1, truncated, DHFR fusion (Arabidopsis thaliana); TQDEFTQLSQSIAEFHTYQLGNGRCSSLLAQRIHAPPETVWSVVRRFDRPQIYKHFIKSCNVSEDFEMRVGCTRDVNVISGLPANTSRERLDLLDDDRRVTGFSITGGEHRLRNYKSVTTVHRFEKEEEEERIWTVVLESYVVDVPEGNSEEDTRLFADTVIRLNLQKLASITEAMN
S63I: 5.12%
S26W: 1.92%
E127M: 37.3%
I105L: -4.84%
W134C: 27.7%
N61C: 29%
M68L: 57.1%

Set 4 — method: Sort-seq; refers to: YFP reporter; sample: E. coli; setting: PhoQ-PhoP variant library; together with: 10 µM Mg2+; baseline: high Mg2+ state; direction: higher = stronger signaling; measurement: fold induction
Molecule: PhoQ, residues 284 288 289 292 302 303 ALVSVA
PhoP, residues 12 14 15 18 19 VGHWL (Escherichia coli, UniProt P23836): 14.4
PhoP, residues 12 14 15 18 19 LHHYF (Escherichia coli, UniProt P23836): 15.3
PhoP, residues 12 14 15 18 19 TPWTL (Escherichia coli, UniProt P23836): 1.08

Some of these lines once more (set 2):
AACACGAUUCCCAGUUUCUUCAACUGGUUCUCAGACCACAGCCUCCUAGAAUUCGACAGAAUAGCUGAAAUUAUCAAAGGGGAGCUGUGGUCCAAUCCCCUACAAUACUAUCUGAUGGGC: 0.41 ratio
UUAUUUUUCCCCCCCUACAGUUUCCAUUUUUUUUUUAUACUUGCUUACUCCAGCCAUCUGCAGUACACCAGUUUCAGGUCUUUUGAGCUGUGUAGAGUUUCUGUGUGUACAGAUGUGUGC: 8.28 ratio
